Published values of several laboratories.
Every numbered part comes from another study and shows a few of its results, in no order.

Series 1
Target: RNA binding protein fox-1 homolog 2, RRM domain, GST-SBP tag (RBFOX2, Homo sapiens, UniProt O43251-10, residues 100-194)
Method: RNA Bind-n-Seq
Molecule type: RNA
Matrix: in vitro
Tested at: 365 nM
Notes: natural RNA segment, single round, ends assumed
Baseline: no-protein control
Reading: higher = stronger binding
Shared flanks, not repeated: GGGAGUUCUACAGUCCGACGAUC … UGGAAUUCUCGGGUGCCAA
Residues (chain): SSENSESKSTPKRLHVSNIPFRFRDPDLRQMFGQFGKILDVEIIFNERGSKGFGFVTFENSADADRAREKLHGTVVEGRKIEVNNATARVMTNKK
Strand | RBNS enrichment (R)
UGAGACCGGUCUGUGGCUGUGGGCCCCUUGGUGACCCGCUGCUCUUUUGGAAAUGGGUGACCUGAAGUGACACUUUUUCCACAAUUAACCCAAGUUGUGUUAAUACUUCA | 0.213
CAGAUAUAUAUUAAAAACAAAUAAUCGAGGUACCAGAGCUGCGUCUGUGGCACCAGCUAGCUGCAGGUGCAGGGGAUGGCGGGAGUGAGGCUGUGUCUGCGGAUGGCUGG | 0.809
AGACUGAGGCUCUCCCAUGCCUACCAGGGGGUGUUUUCCUUCCUAAACAGAACACUGGAUUCUUCCUGUUAACUUCACCGAGAGUAGCUACAAAGGUGGACUUAGAGCCA | 0.325
UUCCUCCUCCACAUCAUCCCCACGACCCUUCUAACUCCUGGCCUCUUCCAGCCAAAACGGGAAAAGUGGCUGACUUCACUGCAUUAGAAGAGGAAAAGUCCAACUCCUUA | 0.943
GAGGACUUGGUUUCUCAUCCACUUGAGGACUAUUUCCAGGUGCCAGGAGAAACCGUGCCCAUUUAGAAGAUGGGGCAUUAACUUGUGUAACAGGACUUGGUAGUUUCCAC | 0.286
CGGUCAGGGAUAUCAUUGGUGAAGUGAUUUCAAAAAGUAUUCAAAAUUUGAUAUGCUGUUUAGUCACUACAGUGCCCUCAAAGGGCAGAAGUUGCAGCCUUUUUUAUAUU | 0.406
GUAGAAUUACACGAUAAGCAAUGGUCAGACUUUCCUUCUGUGGAUCCUUAUGCCAAUUCAGCUACUAAUCGGUCAUUCAUAAAUGGUGAUUAAAAUGAUCAGGUAAUUUU | 0.388
GUUGAGGGUCACCACAACAUGAGGAACUAUAUUAAAGACUCGUGGCAUUAGGAAGGUUGAGAACCACUUCUCUAGGGCUCAAUGUAUUAGAUAACUCACUAAGGGGUAAA | 0.347
CCGCUCCCUACGCAACAUACUUGAAUUCUUGAGUUCCCUUUGGGGUGAGAAAGGAUUUGAAACCAUAAAGUGUUUUAAAGAAAUGAACUCUUCAGAAACAGACUUCCUCC | 0.544
CCUAAGGUGCUCAGCGUCUCAAGAGGACUGGGGUCGAGGCUAAUCUCCAAGCUCCAUCUGCAAAGGAAGGAGGUCUUCCUAGCUGAGCCGACUGUACAUCUGCAGUCCCU | 0.261
AAUCAUUUGAGGGGUGUUUUGAUUUGGUUUGGUUUUUGUUUCUGUCUUUUUGGUCCAUUCAUUCACUGUUUAAAAGUUUAUGAUUCUUCCAAAAAUGAAUAUAGUUUCCU | 0.855
AAGUGGUCACUGCAUCUAGUAAGAUUAUAUUUCCAGUACACUUCCUUAGGGCAGAAACACCAUCCUAUCAGGUUUGGUCAGUCCCUUCUUCAUGAAGGGAGUCAUGGGGA | 0.349

Series 2
Target: RING finger protein unkempt homolog, zinc fingers 1-6, GST-SBP tag (UNK, Homo sapiens, UniProt Q9C0B0, residues 30-357)
Method: RNA Bind-n-Seq
Molecule type: RNA
Matrix: in vitro
Tested at: not given
Notes: RNA with constant flanks, human and mouse sites, ends assumed
Baseline: input RNA pool
Reading: higher = stronger binding
Shared flanks, not repeated: GGGAGUUCUACAGUCCGACGAUC … CAACAGAGGAUUGAGCAUCA
Construct (chain): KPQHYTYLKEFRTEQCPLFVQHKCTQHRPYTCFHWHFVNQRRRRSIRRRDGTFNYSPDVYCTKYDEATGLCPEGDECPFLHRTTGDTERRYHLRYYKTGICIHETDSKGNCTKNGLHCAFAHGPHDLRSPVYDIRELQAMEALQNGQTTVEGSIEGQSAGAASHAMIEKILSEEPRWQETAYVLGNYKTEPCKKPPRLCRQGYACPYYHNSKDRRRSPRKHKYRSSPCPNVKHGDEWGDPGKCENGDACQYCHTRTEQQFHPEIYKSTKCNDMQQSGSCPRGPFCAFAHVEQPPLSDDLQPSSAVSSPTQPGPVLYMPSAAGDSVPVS
Strand | bound/input enrichment [ratio]
UACUGUGACCUACAGCAGGAAUCCAGUGGCAUCGCGGGAAUCCUGAAGUGGGUAAAACUGAUUGACAACUUUGAAGGGGAAUAUGACUACGUGACCAAUGAGGGGACGGUGUUCACAUUC | 0.0975
GAAAGGGCUAAACUGAUUUCCUUGCCAACUAGUAAAAACUGGACCUUCGGACCCCAGGACGUCGAUGAACUGAUCUUCAUGCUGAGCGACAGCCCUGGGGUCAUGUGCCGGCCUUCCCGA | 0.274
CCCAAGGAGACUAAGGAGGACGGAAGAACAGGUGAGGCACAAGGACCCGUGUAAACUCAUCUUAGACCAUCCCAUUCUUGAGUGGCCAGCUCAGAGCUCAAGGCUGGAAGAAAAAGAGCC | 0.277
GGCUCUACGGCGAUUAAGAAGAAACAGCAAGAUGUGCUUUGUUUCUUAGAAGCCAACAAAAUAGGAUUUGAAGAAAAAGAUAUUGCAGCUAAUGAAGAGAAUCGGAAGUGGAUGAGAGAA | 2.1
GUGGAUUCCCCGGAACAGCUGUCUGGAAUAAGGAUGAUUAGACAUCUCACUACUACUACUGACUAUCACACACUGGUUGCCAAUUAUAUGUCUGGGUUUCUCUCCUUAUUAGCUACAGGC | 0.426
CUGGCUUCUGUGCCCGCCGGCGCUUUUUCCCGCCUGCACAAGCUGGCCCGGCUGGACAUGACCUCCAACCGCCUGACCACAAUCCCACCCGACCCACUCUUCUCCCGCCUGCCCCUGCUC | 0.258
ACUGAGGAACAGAAGGGCCGAGUGGCCUUUGCUUCCAAUUUCCUGGCAGGAGAUGCCUCCUUGCAGAUUGAACCUCUGAAGCCCAGUGAUGAGGGCCGGUACACCUGUAAGGUUAAGAAU | 0.127
GGCUCCAGCUACUUUGUCCGACUCUACACAGAGCCCUUGCUAGUGAACCUGCCCACCCCGGACUUCAGCAUGCCCUACAAUGUGAUCUGCCUUACGUGCACGGUGGUGGCCGUGUGCUAU | 0.145
GCGCAGUAUAUUACUGCAGCCCUUAGAGAUUUGUUUGAUUCCAUGGAUAAAACUUCUUCCAGUAUUCCACCUAUUAUUCUACUGCAGUUUUUGCACAUGGCUUUCCCACAGUUUGCCGAG | 0.968
ACUCUAAAGACCCUUCUACAUACUUUAUGCAAAUUAAAAGGACCUAAAAUCCUAGACCACCUUACAAUGAUUGAUAAUAAGAAUGAGUCAGAAUUGGAGGCCCACCUGUGUCGGAUGAUG | 0.394
CUGUCCUCCUUUGAGAUGCAAGGAUGGGGAUGUGACUAGAUAGAGCAGAACUGUUUACCAAACUUUAGAGUGUGAUAAAAACCAUUUUAAAUAGUGGAAAGAUGAAAUCAAAACCAGUAU | 0.636

Series 3
Target: Histone acetyltransferase KAT6A, both winged helices, GST fusion (KAT6A, Homo sapiens, UniProt Q92794, residues 1-181)
Method: protein binding microarray
Molecule type: double-stranded DNA, one strand shown
Matrix: in vitro
Tested at: not given
Notes: 8-mer, flanks averaged, mean of 2 arrays, mostly near background
Baseline: not given
Reading: higher = stronger binding
Residues (chain): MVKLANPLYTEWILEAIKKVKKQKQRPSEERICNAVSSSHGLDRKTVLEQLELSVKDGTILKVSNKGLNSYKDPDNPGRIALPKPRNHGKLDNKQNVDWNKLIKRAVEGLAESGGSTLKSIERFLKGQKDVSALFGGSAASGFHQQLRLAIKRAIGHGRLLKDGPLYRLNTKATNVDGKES
Strand | E-score
CACTGTCA | -0.19
ATACCGCC | 0.211
CCAACTAC | -0.139
ATAGAGCC | 0.0111
GACTTAAC | -0.0497
AAAGTACG | -0.0444
ATATGGGG | -0.079
CCTACGGA | 0.152
CCGTACCG | 0.349
GTACGCTA | 0.0638
GCGTAAAA | 0.142
CTTGCAAC | -0.109
GAATTATA | 0.0446
CGTGACGA | 0.117
CACCGTCA | 0.234
ACTTTCCG | 0.0442
ACCTACCG | 0.00923
CAACAACA | -0.166
AGGAGTAG | -0.14
TAGCTATA | -0.199
AGAAGAGA | -0.119
AGTCTCCC | -0.03
TATGCGCA | 0.319
CTGCTGCC | -0.0647

Series 4
Target: Interferon regulatory factor 7, full length, phosphomimetic (IRF7, Homo sapiens, UniProt Q92985, residues 1-503, S471D/S472D/S475D/S476D/S477D/S483D/S484D/S487D)
Method: protein-binding microarray
Molecule type: double-stranded DNA, one strand shown
Matrix: in vitro
Tested at: 2200 nM top
Notes: 60-bp whole probe
With: salmon DNA 0.4 mg/ml
Baseline: random background probes
Reading: higher = stronger binding
Shared flanks, not repeated: GCCTAGCAC … GTCTTGATTCGCTTGACGCTGCTG
Construct (chain): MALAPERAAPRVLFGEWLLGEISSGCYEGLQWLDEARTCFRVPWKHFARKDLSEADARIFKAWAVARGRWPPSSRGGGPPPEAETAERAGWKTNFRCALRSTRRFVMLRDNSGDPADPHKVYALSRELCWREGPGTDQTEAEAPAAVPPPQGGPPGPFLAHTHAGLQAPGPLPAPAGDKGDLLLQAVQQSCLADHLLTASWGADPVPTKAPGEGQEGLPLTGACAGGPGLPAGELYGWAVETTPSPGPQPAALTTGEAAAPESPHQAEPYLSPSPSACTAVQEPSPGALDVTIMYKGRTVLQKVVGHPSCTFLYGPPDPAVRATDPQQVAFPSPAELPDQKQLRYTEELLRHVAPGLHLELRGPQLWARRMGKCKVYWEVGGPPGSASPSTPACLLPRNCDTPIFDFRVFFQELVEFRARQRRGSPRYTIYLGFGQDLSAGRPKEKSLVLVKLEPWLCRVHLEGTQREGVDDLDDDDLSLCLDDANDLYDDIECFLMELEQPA
Strand | fitted relative affinity [z-score]
GACGGTATCGGTATCGAGACGTGCTAG | 0.205
GACGGTTTGGACACTGGGGACGTGCTA | 0.144
TTAGGACTGGGGATTGGGTTAGTGCTA | -0.532
TTAGATATCAGTCTCGTTTAGTGCTAG | 0.734
GGTGGGGTGCAGCAGGGCCAGTGCTAG | -1.37
TTAGGTTTCGGGACTGTGTTAGTGCTA | 3.23
TTAGGTCTCCTAATGCTTTAGTGCTAG | 0.226
GACGAACTGGGGTTACGAGACGTGCTA | 0.126
TCATTTTTCTAACTAAAACTGTGCTAG | 1.31
TTACATTCCCCATTGTGTTGGTGCTAG | 2.45
TTAGGACTGGGTTTTGGTTAGTGCTAG | 0.218
TCAGATTTCAGTTTCGATTAGTGCTAG | 8.47
GACGAACTGAGTTTCGGGACGTGCTAG | 2.59
CCTAGGGGCGGGGCCAAATGGTGCTAG | 0.189
GACGGTTTCGACGATCGGGACGTGCTA | 1.48
GATGGACTGGACACTGGGGACGTGCTA | -0.618
GACGTACTGAGTTTCGAGACGTGCTAG | 2.26
GACGATATCGGGTTTCGATACGTGCTA | 2.44
GACGGTTTCGGTCTCGGTACGTGCTAG | 6.86
TCACATTACAGCTATTTTACTGTGCTA | 1.35
GACCATATCAGTCTCGAGACGTGCTAG | 0.73
GACGGTATCGGACTGGGGACGTGCTAG | -0.281

A few entries again (series 4):
Strand | fitted relative affinity [z-score]
GATGGACTGGACACTGGGGACGTGCTA | -0.618
GACGTACTGAGTTTCGAGACGTGCTAG | 2.26
GACGATATCGGGTTTCGATACGTGCTA | 2.44
GACGGTTTCGGTCTCGGTACGTGCTAG | 6.86
TCACATTACAGCTATTTTACTGTGCTA | 1.35
GACCATATCAGTCTCGAGACGTGCTAG | 0.73
